# Measured values of several laboratories.
# Each numbered part is a random draw from the data of one study; scales do not carry over between parts.

# Series 1
# Target: Ras GTPase-activating protein-binding protein 1, full length (G3BP1, Homo sapiens, UniProt Q13283)
# Chain of UniProt Q13283 (whole entry, looked up): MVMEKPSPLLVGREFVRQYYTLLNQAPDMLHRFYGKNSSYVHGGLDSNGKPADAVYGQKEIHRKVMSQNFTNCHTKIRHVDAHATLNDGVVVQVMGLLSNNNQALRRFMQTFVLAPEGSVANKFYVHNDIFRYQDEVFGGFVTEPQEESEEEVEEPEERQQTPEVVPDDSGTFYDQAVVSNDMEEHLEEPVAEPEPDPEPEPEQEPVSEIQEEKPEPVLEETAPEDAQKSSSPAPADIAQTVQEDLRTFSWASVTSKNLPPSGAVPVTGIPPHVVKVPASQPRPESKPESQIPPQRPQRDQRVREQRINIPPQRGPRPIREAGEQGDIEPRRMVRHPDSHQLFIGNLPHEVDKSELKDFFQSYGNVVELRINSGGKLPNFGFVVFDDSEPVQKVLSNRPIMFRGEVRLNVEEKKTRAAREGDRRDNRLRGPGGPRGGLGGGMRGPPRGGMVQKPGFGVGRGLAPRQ
# Technique: RNA Bind-n-Seq
# Molecule type: RNA
# Medium: in vitro
# Concentration: 200 nM
# Setting: whole 134-nt RNA, ends assumed
# With: 150 mM LiCl
# Relative to: input library
# Direction: higher = stronger binding
# Library: 7-deaza-guanosine replaces G
# Constant ends, left off below: GGGAGUUCUACAGUCCGACGAUC … UGGAAUUCUCGGGUGUCAAGG
Strand,log2 enrichment
UCCUCAAGUCCUGUGCUACACAUCGUAUGUACCGAAUCGGAGGGGAGGAGGAAAGUAUUAUGUUACGCCGUUCGGAUCUGCACUUCCAGC,-1.42
AGUCCUGUGCUACACAUCGUAUGUACCGAAUCGGGGAGGGGUUUGGGGAAAAAGGGGAAAGUAUUAUGUUACGCCGUUCGGAUCUGCACU,-0.339
CUCAAGUCCUGUGCUACACAUCGUAUGUACCGAAUCGGGAGGGUUUGGGAGGGAAAGUAUUAUGUUACGCCGUUCGGAUCUGCACUUCCA,0.0193
ACCAUGCAGGUGGGCAUCUUUGGGAAGUGGGGCAAGGGGGGGAUAGGGAGGGGGGUAACACUUUGGGAACAGGUGGUCCCAGGCCGUUUC,0.248
CCUGUGCUACACAUCGUAUGUACCGAAUCGGGGUUUUUUUGGGGUUUUUUUGGGGUGGGGAAAGUAUUAUGUUACGCCGUUCGGAUCUGC,0.867
UCAAGUCCUGUGCUACACAUCGUAUGUACCGAAUCGGUUUGGGUUUGGGGUUUGGAAAGUAUUAUGUUACGCCGUUCGGAUCUGCACUUC,-0.799
UGGCCCUGGUGGCAUGCGGGGAGGAAGAGGUGGCCUCAUGGAUCGUGGUGGGCCCGGUGGAAUGUUCAGAGGUGGCCGUGGUGGAGACAG,0.896
UGGCCCUGGUGGCAUGCGGGGAGGAAGAGGUGGCCUCAUGGAUCGUGGUGGUCCCGGUGGAAUGUUCAGAGGUGGCCGGGGUGGAGACAG,-0.244
AGUCCUGUGCUACACAUCGUAUGUACCGAAUCGGGUGGGUUUUUGGGUUUUUUUGGGAAAGUAUUAUGUUACGCCGUUCGGAUCUGCACU,-0.235
UGUUGGGCUUCGAUCCCAGGUGGAUGAUGAUGCCUUCCUACAUGGACCCACGUAUCACGCCCACUCGGACCCCGGUGGACUUCUACCCCU,-0.84
AAGUCCUGUGCUACACAUCGUAUGUACCGAAUCGGGUGGGUUUGGGUUUUUUUGGGAAAGUAUUAUGUUACGCCGUUCGGAUCUGCACUU,-0.372

# Series 2
# Target: Histone acetyltransferase KAT6A, both winged helices, GST fusion (KAT6A, Homo sapiens, UniProt Q92794, residues 1-181)
# Technique: protein binding microarray
# Molecule type: double-stranded DNA, one strand shown
# Medium: in vitro
# Concentration: not given
# Setting: 8-mer, flanks averaged, mean of 2 arrays, mostly near background
# Relative to: not given
# Direction: higher = stronger binding
# Residues (chain): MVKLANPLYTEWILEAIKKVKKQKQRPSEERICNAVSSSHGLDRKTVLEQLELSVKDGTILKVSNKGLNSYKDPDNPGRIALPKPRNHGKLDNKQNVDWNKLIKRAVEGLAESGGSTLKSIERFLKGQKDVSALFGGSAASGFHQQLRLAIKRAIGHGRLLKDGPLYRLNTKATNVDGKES
Strand,E-score
AGCGCGAC,0.277
TAGAGGGA,-0.253
CAGTTATC,0.00458
CCCGCGTA,0.213
ACTGATAG,-0.26
ACACTAGG,-0.0643
AGAGTACA,-0.0753
AATATGAT,-0.117
GAAAAATC,-0.102
AAGAGACA,-0.158
GGACGGTA,0.24
GACTACTC,0.105
CGGTGTGC,0.136
TCCAGTCA,-0.0253
GGAAAGCA,0.118
CTTCGCAC,0.0316
ACAGCAGG,-0.0911
AGTGTGTC,-0.103

# Series 3
# Target: RNA binding protein fox-1 homolog 2, RRM domain, GST-SBP tag (RBFOX2, Homo sapiens, UniProt O43251-10, residues 100-194)
# Technique: RNA Bind-n-Seq
# Molecule type: RNA
# Medium: in vitro
# Concentration: 365 nM
# Setting: natural RNA segment, single round, ends assumed
# Relative to: no-protein control
# Direction: higher = stronger binding
# Constant ends, left off below: GGGAGUUCUACAGUCCGACGAUC … UGGAAUUCUCGGGUGCCAA
# Construct (chain): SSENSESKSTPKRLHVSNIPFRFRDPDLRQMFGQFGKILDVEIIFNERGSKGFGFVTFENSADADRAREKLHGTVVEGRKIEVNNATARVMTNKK
Strand,RBNS enrichment (R)
AGCACCUCCCAGAAAGCUGUGAGCGUGGUUUGGUUCAGAACUCCAGCACCCUGUGCCAGGCACUGACUCAAGCAAGAGGAACCUGGCCUGAUCCCUGACUUUGGGGAACC,0.291
GGUCUUGGCUGCAUUCUUUUUUUUCCCUCGUGGGGUUCAAAAGAAUAAACAUUUUCUUACUGAUAAACUAGUUUCCUGCCUUUUUAACAUCCCUGGUGGACACAGCGAGG,0.389
CCGAAUGAUGUUUGGUAAUUGUAGAAAAAGUAAAUGUGUCUCAGGAUCACUAUUACUGCUGUUGCCACUAGUGAUUCCUAGGAAAUACAUAAUUGACUUUUUCCAACAAA,0.596
UGUGACAUUUAUAUAUUGAAUUAAUAUCCCUACAUGUAUUGCACAUUGUAAAAAGUUUUAGUUUUGAUGAGUUGUGAGUUUACCUUGUAUACUGUAGGCACACUUUGCAC,0.629
CAUCUCUGACUGAGGUGUUUUUGUUUGGUUUUGUUUUUUAAAAUCAUGUAUUUGCUACAAAGUAUUGUACUUGUCUCAAUGGGAAUGGUGUAAAAAACAAAAGGCCUUAU,0.375
GGGCAGAGAGGGAAGGAGGGAGGAGGCAUCUUCCCUGAAGCCCCCAAUCUGGCCCCCCCCUCCCCAGACUUCCUCCCCAAAACACCCCAGCUUUCUGGCUUUUCUGAGGG,0.281
ACACCUGCCCCUCCUCACCUAACGGACUGCAGGGCUGAGCAUGUGUCUGAGGUCACACUCUCUGCCCACUCACCUCCUUGGCUGACAUCGGUUGUGUUUGGUGCUGACAC,0.661
CUGUUAAUAUGGACUUGGACUAGAUAACCUUAAAUUGGCCUAUUCCUUCAAUUAAUAAAAUAUUUUUGCCAUAGUAUGUGACUCUACAUAACAUACUGAAACUAUUUAUA,0.292
CGCCUUUUUAAGACUUGAGUGGUGGCACUAGCCAGUGUCCCCCAUGGCUGGGCAGUUGAGCACCUGCUCUUCACCUGCCCUGGCUAUGGCUGUGGCAAGCUGUGAGCCCU,0.264
AUUGGGCUGCAGGCAGCUCUGGGACGGCACAGGGCGGGCGCUCUGAUCAGCUCGUGUAAAACACACCGUCUUCUUGGCCUCCUGGCCAGUCUUUCUGCGAAUAGUCCUCU,0.192
CUGUUCUGACCUCAUGAGUGUCAAACGUGCCCCCCAGUUCCUUAGGAGAUGUCAUGACAACACUACACGCACCCAAUAAAGCGAAUGGACCAUCCAUGUGUGUCCCUGUG,0.274
UUUGCAGAUGUAAUAAACUUUAAUAUAAAGGAGUCCUAUGAACUCUACUGCUUCUGCUUCUUCUUCUCUGGACUGGUGGUAUAGAUAUAGCCACCCUUUGCCCAAACCCU,0.234

# Series 4
# Target: Interferon regulatory factor 3, full length, phosphomimetic (IRF3, Homo sapiens, UniProt Q14653, residues 1-427, S386D/S396D/S398D/S402D/T404D/S405D)
# Technique: protein-binding microarray
# Molecule type: double-stranded DNA, one strand shown
# Medium: in vitro
# Concentration: 2540 nM top
# Setting: 60-bp whole probe
# With: salmon DNA 0.4 mg/ml
# Relative to: random background probes
# Direction: higher = stronger binding
# Constant ends, left off below: GCCTAGCAC … GTCTTGATTCGCTTGACGCTGCTG
# Residues (chain): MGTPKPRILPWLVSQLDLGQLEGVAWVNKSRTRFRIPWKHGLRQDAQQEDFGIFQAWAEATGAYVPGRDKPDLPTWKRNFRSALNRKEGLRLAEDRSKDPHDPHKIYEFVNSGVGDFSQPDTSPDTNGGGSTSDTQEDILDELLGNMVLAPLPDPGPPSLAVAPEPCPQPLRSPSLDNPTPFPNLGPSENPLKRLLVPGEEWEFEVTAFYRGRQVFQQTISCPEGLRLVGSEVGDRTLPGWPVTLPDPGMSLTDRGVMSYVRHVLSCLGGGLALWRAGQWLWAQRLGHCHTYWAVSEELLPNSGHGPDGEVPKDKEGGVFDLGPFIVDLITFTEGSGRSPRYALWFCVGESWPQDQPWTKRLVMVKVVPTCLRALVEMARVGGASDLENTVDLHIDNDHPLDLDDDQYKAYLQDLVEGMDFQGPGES
Strand,fitted relative affinity
AACGGTATCGGACTGGGGACGTGCTAG,1.41 z-score
CCCCTCTTCTGGATCTCAGAGTGCTAG,1.64 z-score
TTAGGACTGGGTCTCGGTTCGTGCTAG,-0.467 z-score
TTAGATATCACACTGGATTAGTGCTAG,0.191 z-score
TCACTTCTGCTTCCTCAGACTGTGCTA,1.13 z-score
TCATGTACGTCGTTTCCCACTGTGCTA,1.25 z-score
GACGATCTCAGACTCGAGACGTGCTAG,0.432 z-score
TCATTTTTCCCTCTGGAACTGTGCTAG,2.62 z-score
TCAGATCTGCCGTCCCACTCAGTGCTA,0.42 z-score
GACGATTTCTGACTGGAGACGTGCTAG,0.771 z-score
AAGGTAGCACTTCACAGCAAGTGCTAG,-0.00556 z-score
TCATGTATATATTTTAAACTGTGCTAG,0.0271 z-score
GACGGACTGGACACTGGGGAAGTGCTA,-0.629 z-score
TTAGGACTGGGTATCTGTTAGTGCTAG,-0.344 z-score
GACGATTTCGGGTTTCGAAACGTGCTA,3.56 z-score
GACGATCTCAGTATCGGGACGTGCTAG,1.44 z-score
GACGGACTGGACACTAGGGACGTGCTA,-0.511 z-score
CCTTCTCTAACCTCTCTAATAGTGCTA,4.3 z-score
TAGTATTTTTTTCCAGAGGGGTGCTAG,0.767 z-score
TTAGGTATCGGGAGTGGGTTAGTGCTA,0.28 z-score
TTAGATCTCAGTCTCTATTAGTGCTAG,0.408 z-score
TTAGGTTTAGGTTTCGGTTAGTGCTAG,5.18 z-score
TACGGACTGGGGACTGGGGACGTGCTA,-1.07 z-score
CTTCATGTTTTTTTCTACTTGTGCTAG,0.616 z-score
GACGGTTTCGGGACTCGGGACGTGCTA,4.68 z-score

# A few entries again (series 4):
Strand,fitted relative affinity
CCTTCTCTAACCTCTCTAATAGTGCTA,4.3 z-score
TAGTATTTTTTTCCAGAGGGGTGCTAG,0.767 z-score
TTAGGTATCGGGAGTGGGTTAGTGCTA,0.28 z-score
TTAGATCTCAGTCTCTATTAGTGCTAG,0.408 z-score
TTAGGTTTAGGTTTCGGTTAGTGCTAG,5.18 z-score
TACGGACTGGGGACTGGGGACGTGCTA,-1.07 z-score
CTTCATGTTTTTTTCTACTTGTGCTAG,0.616 z-score
GACGGTTTCGGGACTCGGGACGTGCTA,4.68 z-score
